# Measured values gathered from unrelated publications.
# Each numbered part is a random draw from the data of one study; scales do not carry over between parts.
# Sequence of UniProt Q9Y5S2 (whole entry, looked up): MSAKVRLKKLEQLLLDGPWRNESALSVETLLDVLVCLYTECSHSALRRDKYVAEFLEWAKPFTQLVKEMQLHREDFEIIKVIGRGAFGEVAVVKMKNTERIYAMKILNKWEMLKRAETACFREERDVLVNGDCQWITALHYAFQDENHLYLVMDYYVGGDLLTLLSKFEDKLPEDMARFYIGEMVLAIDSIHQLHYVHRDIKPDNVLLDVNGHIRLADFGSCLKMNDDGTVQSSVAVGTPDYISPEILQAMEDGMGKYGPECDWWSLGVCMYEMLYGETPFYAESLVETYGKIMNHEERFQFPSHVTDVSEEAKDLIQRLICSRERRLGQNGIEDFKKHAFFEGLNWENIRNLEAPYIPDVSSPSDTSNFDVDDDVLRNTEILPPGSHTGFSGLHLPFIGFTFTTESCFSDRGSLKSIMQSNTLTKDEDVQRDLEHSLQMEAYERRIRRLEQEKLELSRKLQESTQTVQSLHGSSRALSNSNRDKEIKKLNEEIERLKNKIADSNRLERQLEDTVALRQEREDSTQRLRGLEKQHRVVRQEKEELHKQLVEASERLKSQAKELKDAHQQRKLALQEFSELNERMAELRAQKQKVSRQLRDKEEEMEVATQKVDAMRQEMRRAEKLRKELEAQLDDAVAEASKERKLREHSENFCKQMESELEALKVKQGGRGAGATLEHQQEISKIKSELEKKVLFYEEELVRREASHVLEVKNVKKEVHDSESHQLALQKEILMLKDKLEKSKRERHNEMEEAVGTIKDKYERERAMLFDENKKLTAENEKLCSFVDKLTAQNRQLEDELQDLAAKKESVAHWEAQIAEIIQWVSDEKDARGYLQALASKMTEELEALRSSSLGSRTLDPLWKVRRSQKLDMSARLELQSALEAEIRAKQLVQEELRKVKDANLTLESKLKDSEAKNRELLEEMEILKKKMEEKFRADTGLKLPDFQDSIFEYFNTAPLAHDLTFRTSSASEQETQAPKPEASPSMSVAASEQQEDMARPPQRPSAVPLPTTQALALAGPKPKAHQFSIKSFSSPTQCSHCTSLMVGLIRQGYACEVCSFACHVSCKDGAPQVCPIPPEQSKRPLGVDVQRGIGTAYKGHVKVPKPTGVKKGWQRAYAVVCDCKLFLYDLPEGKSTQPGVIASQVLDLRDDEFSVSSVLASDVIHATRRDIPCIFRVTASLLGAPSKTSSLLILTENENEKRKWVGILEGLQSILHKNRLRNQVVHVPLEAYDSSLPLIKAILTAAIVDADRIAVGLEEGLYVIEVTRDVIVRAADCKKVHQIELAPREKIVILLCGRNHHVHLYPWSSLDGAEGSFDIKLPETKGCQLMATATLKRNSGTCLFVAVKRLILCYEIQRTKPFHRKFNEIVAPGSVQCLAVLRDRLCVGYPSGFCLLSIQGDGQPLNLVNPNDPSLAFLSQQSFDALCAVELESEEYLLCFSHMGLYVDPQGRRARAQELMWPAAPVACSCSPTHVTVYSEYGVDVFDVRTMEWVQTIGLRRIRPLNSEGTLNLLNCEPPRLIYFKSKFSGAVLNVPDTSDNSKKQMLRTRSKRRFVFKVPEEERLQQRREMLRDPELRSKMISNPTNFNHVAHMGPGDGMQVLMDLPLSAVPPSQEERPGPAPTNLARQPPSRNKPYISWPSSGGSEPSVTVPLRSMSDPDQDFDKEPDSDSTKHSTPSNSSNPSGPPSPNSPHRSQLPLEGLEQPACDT
# Sequence of UniProt Q8CIP4 (whole entry, looked up): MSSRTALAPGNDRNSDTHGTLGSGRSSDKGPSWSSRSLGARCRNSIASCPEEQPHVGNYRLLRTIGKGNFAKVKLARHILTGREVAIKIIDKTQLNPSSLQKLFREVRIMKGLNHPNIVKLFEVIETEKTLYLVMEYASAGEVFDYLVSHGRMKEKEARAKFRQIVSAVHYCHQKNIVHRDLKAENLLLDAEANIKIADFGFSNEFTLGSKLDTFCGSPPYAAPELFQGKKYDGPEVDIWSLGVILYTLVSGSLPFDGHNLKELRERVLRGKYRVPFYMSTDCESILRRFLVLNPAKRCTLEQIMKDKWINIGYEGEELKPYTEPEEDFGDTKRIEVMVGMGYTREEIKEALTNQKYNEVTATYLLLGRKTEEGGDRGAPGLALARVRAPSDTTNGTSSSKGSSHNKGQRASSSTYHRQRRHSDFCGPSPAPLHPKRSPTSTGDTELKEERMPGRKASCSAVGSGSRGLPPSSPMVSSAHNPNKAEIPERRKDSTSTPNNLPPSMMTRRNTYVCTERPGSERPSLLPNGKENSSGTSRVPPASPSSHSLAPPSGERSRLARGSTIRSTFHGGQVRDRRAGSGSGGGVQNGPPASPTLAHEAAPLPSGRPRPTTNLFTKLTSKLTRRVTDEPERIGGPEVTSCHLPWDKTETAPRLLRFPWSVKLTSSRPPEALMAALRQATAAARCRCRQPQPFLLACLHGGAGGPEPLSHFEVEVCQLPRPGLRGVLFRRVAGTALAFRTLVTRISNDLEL
# Sequence of UniProt O14730 (whole entry, looked up): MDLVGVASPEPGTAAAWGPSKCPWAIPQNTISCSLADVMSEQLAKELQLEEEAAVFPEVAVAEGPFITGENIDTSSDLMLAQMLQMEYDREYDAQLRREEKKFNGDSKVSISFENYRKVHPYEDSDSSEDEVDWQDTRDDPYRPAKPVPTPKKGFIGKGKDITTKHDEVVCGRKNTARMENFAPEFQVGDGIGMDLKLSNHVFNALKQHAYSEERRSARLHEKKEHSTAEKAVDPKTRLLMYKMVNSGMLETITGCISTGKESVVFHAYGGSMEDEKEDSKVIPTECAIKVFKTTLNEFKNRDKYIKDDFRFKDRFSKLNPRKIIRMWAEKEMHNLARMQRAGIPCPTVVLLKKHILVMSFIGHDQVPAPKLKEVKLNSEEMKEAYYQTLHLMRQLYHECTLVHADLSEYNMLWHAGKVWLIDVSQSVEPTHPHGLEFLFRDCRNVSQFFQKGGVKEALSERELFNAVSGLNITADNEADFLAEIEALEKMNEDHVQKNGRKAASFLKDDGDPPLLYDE
# Sequence of UniProt Q8IVH8 (whole entry, looked up): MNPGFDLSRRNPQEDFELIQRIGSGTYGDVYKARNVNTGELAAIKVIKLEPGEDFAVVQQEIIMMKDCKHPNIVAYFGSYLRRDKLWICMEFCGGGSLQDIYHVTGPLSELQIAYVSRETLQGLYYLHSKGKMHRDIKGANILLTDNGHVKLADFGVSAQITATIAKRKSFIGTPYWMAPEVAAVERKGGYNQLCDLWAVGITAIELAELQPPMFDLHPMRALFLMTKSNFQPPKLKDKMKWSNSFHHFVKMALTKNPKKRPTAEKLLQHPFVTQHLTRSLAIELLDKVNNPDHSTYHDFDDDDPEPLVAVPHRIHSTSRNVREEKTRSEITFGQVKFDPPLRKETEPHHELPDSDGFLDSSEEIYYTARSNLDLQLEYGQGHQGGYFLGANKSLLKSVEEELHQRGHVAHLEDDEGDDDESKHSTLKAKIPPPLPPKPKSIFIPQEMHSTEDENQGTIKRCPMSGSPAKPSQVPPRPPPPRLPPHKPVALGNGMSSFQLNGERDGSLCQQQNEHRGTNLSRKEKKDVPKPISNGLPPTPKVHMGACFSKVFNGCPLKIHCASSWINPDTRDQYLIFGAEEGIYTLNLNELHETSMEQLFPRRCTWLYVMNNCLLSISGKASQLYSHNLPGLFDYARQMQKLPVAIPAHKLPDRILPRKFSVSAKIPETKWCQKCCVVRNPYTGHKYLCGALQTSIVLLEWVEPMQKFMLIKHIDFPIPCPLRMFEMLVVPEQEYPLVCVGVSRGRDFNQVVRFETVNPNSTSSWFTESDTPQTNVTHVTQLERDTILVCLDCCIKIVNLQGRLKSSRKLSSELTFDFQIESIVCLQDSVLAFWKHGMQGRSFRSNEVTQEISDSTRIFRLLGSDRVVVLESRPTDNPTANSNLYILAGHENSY
# Sequence of UniProt Q9BXA7 (whole entry, looked up): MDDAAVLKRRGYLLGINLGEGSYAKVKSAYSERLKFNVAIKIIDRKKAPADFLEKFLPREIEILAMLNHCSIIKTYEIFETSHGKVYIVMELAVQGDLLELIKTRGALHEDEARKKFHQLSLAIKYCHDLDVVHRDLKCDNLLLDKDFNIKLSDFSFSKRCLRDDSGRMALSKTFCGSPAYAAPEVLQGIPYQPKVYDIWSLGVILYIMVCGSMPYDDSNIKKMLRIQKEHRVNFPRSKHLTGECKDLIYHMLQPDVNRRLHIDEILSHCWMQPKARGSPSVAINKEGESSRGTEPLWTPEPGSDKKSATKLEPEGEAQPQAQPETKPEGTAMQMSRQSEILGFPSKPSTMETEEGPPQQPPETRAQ
# Sequence of UniProt P51817 (whole entry, looked up): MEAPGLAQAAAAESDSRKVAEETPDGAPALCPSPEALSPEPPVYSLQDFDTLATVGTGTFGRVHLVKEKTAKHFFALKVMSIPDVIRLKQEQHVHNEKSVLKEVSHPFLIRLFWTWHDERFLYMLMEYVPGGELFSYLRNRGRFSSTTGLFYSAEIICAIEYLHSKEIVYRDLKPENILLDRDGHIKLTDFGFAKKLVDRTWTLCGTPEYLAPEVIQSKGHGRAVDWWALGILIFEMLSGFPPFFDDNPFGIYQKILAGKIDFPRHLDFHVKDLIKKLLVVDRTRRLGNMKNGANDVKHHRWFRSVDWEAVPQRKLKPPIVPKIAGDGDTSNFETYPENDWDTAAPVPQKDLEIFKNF

# Set 1
# Organism: Sarcocystis neurona
# Effect on: parasite growth
# Tested at: 10 µM
# Time: 96 h
# Notes: first screen
SMILES,inhibition
NC12CC3CC(CC(C3)C1)C2,-15%
CNS(=O)(=O)Cc1ccc2[nH]cc(CCN(C)C)c2c1,-0.647%
O=C(CCNNC(=O)c1ccncc1)NCc1ccccc1,-5.1%
CC(=O)NS(=O)(=O)c1ccc(N)cc1,-15.2%
COc1ccc(Cl)cc1C(=O)NCCc1ccc(S(=O)(=O)NC(=O)NC2CCCCC2)cc1,-19.1%
Nc1nc(O)c2ncn(COC(CO)CO)c2n1,-12.3%

# Set 2
# Structure (SMILES): CCCCN(CCCC)C(=O)CN1C[C@@H](c2cc(OC)c3c(c2)OCO3)[C@H](C(=O)O)[C@H]1CC(C)(C)CCC
# Effect on: cell-free assay
# Technique: competition with immobilised ligand
# Tested at: 1 µM
target,remaining binding [%]
"KIT (Homo sapiens, UniProt P10721)",100
"FLT3 (Homo sapiens, UniProt P36888, D835H)",100
"RIOK3 (Homo sapiens, UniProt O14730)",100
"TRPM6 (Homo sapiens, UniProt Q9BX84)",90.4
"ACVR2A (Homo sapiens, UniProt P27037)",85.1
"MAP4K3 (Homo sapiens, UniProt Q8IVH8)",94.1
"GRK3 (Homo sapiens, UniProt P35626)",87.6
"TSSK1B (Homo sapiens, UniProt Q9BXA7)",100
"GRK2 (Homo sapiens, UniProt P25098)",97.8
"PDGFRA (Homo sapiens, UniProt P16234)",100
"DYRK1B (Homo sapiens, UniProt Q9Y463)",95
"CDC42BPB (Homo sapiens, UniProt Q9Y5S2)",100
"PRKX (Homo sapiens, UniProt P51817)",87.7

# Set 3
# SMILES: COc1cc(C(=O)N2CCC(N3CCN(C)CC3)CC2)ccc1Nc1ncc2c(n1)N(C)c1ccccc1C(=O)N2C
tested on,assay,test system,conditions,inhibition [%]
MAP2K4 (mouse),"probe labelling, KiNativ, refers to: DIkPSNILLDR peptide, LYS2 site",brain tissue lysate (mouse),"0.1 µM, together with: ADP acyl-phosphate probe",-20
FYN (mouse),"probe labelling, KiNativ ADP probe",mouse brain lysate,"0.1 µM, LYS1 labelled site",-24.7
PAN3 human,KiNativ profiling,human PBMC lysate,"concentration not given, ATP probe, other site",8.8
CDK5 (mouse),"probe labelling, KiNativ, refers to: DLkPQNLLINR peptide, LYS2 site",brain tissue lysate (mouse),"0.1 µM, together with: ATP acyl-phosphate probe",-4.7
"MAP/microtubule affinity-regulating kinase 4 (Mus musculus, UniProt Q8CIP4)",KiNativ profiling,mouse brain lysate,"0.1 µM, LYS1 site, together with: ADP acyl phosphate probe",1.1
PI4KB mouse,KiNativ profiling,mouse brain lysate,"0.1 µM, ATP site, together with: ADP acyl phosphate probe",-12.9
human PBMC,"probe labeling, inhibitor, KiNativ profiling, refers to: LTDFGLSkESIDHEKK",cell lysate,"concentration not given, domain 1, activation loop site, together with: ADP acyl-phosphate probe 1 µM",-0.4

# Set 4
# Target: Beta-1 adrenergic receptor (ADRB1, Homo sapiens, UniProt P08588)
# Sequence of UniProt P08588 (whole entry, looked up): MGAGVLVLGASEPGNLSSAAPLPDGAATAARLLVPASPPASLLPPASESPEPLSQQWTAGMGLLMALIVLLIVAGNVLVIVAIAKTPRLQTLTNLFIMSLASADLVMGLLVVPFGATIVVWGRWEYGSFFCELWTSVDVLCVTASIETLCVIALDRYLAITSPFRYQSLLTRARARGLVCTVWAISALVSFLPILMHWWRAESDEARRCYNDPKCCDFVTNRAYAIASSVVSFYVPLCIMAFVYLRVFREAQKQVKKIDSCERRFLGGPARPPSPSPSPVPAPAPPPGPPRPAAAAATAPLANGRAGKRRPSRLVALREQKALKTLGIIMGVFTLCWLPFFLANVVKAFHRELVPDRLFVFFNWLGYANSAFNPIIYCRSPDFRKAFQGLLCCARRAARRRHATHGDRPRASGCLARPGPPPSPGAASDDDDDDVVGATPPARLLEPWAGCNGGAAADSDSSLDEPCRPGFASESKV
# Mode: antagonist
SMILES,IC50
CC(=O)Oc1ccc2c(c1)Oc1cc(OC(C)=O)ccc1C21OC(=O)c2cc(C(=O)O)ccc21,≥ 100 µM
CN1Cc2sccc2C(c2ccc(O)c(O)c2)C1 (centres unmarked),≥ 100 µM
COc1ccccc1N1CCN(C(C)C(=O)Nc2ccc(F)cc2)CC1 (centres unmarked),≥ 100 µM
CC1(C)CC(=O)c2cc(C(=O)Nc3cccc4ccccc34)c(O)nc2C1,≥ 100 µM
O=C(Nc1ccc([C@@H](O)[C@H]2COCC(=O)N2Cc2ncc[nH]2)cc1)C1CC1,≥ 100 µM
COCc1nc(NCCc2nc(-c3ccccn3)no2)c2cnn(C)c2n1,≥ 100 µM

# A few entries again (set 2):
target,remaining binding [%]
"MAP4K3 (Homo sapiens, UniProt Q8IVH8)",94.1
"FLT3 (Homo sapiens, UniProt P36888, D835H)",100
"TRPM6 (Homo sapiens, UniProt Q9BX84)",90.4
"CDC42BPB (Homo sapiens, UniProt Q9Y5S2)",100
"RIOK3 (Homo sapiens, UniProt O14730)",100
